Assay results collected from several papers.
Parts stem from different laboratories: compare values within a part only. Changes are numbered by the printed parent chain.

Sample 1
Target: Prothrombin, mature alpha-thrombin (F2, Homo sapiens, UniProt P00734)
Technique: aptamer microarray, sandwich
Form: DNA with 2'F-ANA
Sample: in vitro
Concentration: 200 nM
Setting: whole 15-mer aptamer, many near background
Added: Cy3 exosite-II aptamer, 400 nM
Direction: higher = stronger binding
Endpoint: mean fluorescence intensity
Sequence: GGTTGGTGTGGTTGG
2'F-ANA at 3 5 6 8 12 13 15: 178 a.u.
2'F-ANA at 2 3 7 12: 1260 a.u.
2'F-ANA at 5 6 8 9 10 11 12 14: 50 a.u.
2'F-ANA at 1 3 5 8 11 13: 57.3 a.u.
2'F-ANA at 2 5 7 11: 73.7 a.u.
2'F-ANA at 2 4 8 10 13 14 15: 62.2 a.u.
2'F-ANA at 2 4 5 6 8 10 14 15: 50.1 a.u.
2'F-ANA at 3 4 7 9 10 11 12 13 14 15: 169 a.u.

Sample 2
Target: UDP-N-acetylglucosamine--peptide N-acetylglucosaminyltransferase 110 kDa subunit (OGT, Homo sapiens, UniProt O15294)
Sequence of UniProt O15294 (whole entry, looked up): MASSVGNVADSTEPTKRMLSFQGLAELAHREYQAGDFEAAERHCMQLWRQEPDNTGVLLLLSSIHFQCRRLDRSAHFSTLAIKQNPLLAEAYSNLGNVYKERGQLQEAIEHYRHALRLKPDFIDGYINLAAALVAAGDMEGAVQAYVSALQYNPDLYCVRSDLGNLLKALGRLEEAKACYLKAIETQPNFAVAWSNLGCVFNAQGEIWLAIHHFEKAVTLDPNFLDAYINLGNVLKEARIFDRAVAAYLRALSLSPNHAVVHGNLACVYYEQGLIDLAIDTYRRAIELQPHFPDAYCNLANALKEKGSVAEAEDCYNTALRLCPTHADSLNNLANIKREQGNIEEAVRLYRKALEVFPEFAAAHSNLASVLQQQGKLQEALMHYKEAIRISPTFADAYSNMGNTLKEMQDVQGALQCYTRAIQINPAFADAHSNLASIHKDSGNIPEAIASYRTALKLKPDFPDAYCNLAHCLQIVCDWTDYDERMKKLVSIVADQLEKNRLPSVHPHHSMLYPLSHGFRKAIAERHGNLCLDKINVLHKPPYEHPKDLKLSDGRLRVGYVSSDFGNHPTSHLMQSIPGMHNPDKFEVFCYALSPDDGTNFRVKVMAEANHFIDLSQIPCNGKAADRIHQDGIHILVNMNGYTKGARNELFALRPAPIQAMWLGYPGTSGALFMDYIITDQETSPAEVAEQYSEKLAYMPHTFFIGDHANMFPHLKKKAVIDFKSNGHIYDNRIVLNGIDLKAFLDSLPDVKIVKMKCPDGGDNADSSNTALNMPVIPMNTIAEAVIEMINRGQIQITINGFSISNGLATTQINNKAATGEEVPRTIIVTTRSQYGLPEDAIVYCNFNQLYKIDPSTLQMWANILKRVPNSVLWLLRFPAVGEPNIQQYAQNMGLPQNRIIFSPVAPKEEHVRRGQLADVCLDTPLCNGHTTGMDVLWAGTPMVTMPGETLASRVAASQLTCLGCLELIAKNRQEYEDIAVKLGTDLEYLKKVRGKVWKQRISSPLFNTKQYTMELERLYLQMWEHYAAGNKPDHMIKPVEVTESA
Effect on: binding
Technique: phage display NGS
Form: peptide
Concentration: concentration not given
Setting: normalized abundance
Relative to: input library
Endpoint: enrichment fold change
WSAQPNLYPVYQIIV: 11.8
HDGLKWGKHFTHHRG: 4.13
HDSNWWTDHTWKHH: 4.86
SYFPVYQIQSFYPVT: 9.94

Sample 3
Target: CCND1, cyclin fold, Cln2 fusion (human)
Technique: yeast growth competition, sequencing
Sample: yeast
Setting: strong parent motif
Relative to: not given
Direction: higher = stronger binding
Endpoint: normalised enrichment score
Parent: viral docking peptide; YKVKRRLVFGADD; partner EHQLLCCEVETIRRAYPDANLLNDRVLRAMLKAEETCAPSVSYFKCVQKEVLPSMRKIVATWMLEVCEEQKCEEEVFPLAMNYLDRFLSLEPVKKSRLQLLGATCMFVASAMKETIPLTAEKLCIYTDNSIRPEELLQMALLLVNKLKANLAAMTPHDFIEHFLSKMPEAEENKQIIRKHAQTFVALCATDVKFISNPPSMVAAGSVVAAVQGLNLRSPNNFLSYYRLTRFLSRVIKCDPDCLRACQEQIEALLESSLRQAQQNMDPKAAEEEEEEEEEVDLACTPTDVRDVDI
F9C: 0.199
K2R: 2.16
K2G: 1.87
A11P: 3.16
V3I: 1.77

Sample 4
Target: FOSL2, bZIP domain (human)
Technique: DHFR protein complementation
Sample: yeast
Setting: single substitutions, most at no-binding floor
Relative to: wild-type JUN-FOS pair
Direction: higher = stronger binding
Endpoint: binding fitness
Parent: JUN, bZIP domain (human); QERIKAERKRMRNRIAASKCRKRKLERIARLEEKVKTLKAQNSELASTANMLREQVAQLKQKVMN; partner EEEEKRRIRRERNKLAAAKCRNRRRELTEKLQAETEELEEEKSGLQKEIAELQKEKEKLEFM
A49R: 0.192 natural log
L52P: -1.25 natural log
L31S: -0.453 natural log
S47G: 0.0445 natural log
E32L: 0.0379 natural log
E54F: -0.139 natural log
M51A: 0.16 natural log
I28D: -0.218 natural log

Excerpt of the above (sample 1):
2'F-ANA at 2 3 7 12: 1260 a.u.
2'F-ANA at 5 6 8 9 10 11 12 14: 50 a.u.
